Experimental data gathered from unrelated publications.
Lines come from different studies, so protocols differ. Numbers after ± are the reported error.

Compound | assay | test system | setting | how to read | endpoint | result
Cn1c(=O)oc2ccc(-c3ccc(CC(C#N)NC(=O)C4CNCCCO4)c(F)c3)cc21 (stereo not drawn) |  | human | dose not given, single ascending doses, all subjects |  | subjects with urine glucose | 6.7%
COc1cnc2cccc(N3CCc4c(cc(Cn5ccnc5)cc4-c4cn(C)nc4C(F)(F)F)C3=O)c2c1 |  | CD-1 male mice, plasma | oral | relative to: 50 over 10 mg/kg | dose-normalised AUC(0-last) ratio | 2.6 fold
COC(=O)C(CSC1CC(=O)N(CCC(=O)O)C1=O)NC(=O)CCC(NC(=O)c1ccc(NCc2cnc3nc(N)nc(N)c3n2)cc1)C(=O)O (stereo not drawn) |  | male beagle dogs, plasma | intravenous and subcutaneous, range over both routes |  | terminal half-life | 76.8 to 128 min
CCCC[C@@H]1NC(=O)[C@@H](NC(=O)[C@H](CCC(=O)O)NC(=O)CNC(=O)CN2CCN(CC(=O)O)CCN(CC(=O)O)CCN(CC(=O)O)CC2)CCCCNC(=O)C[C@@H](C(N)=O)NC(=O)[C@H](C(C)C)NC(=O)[C@@H]2CCCN2C(=O)[C@H](CCCNC(=N)N)NC(=O)CNC(=O)[C@H](Cc2c[nH]c3ccccc23)NC(=O)[C@H](CCCNC(=N)N)NC(=O)[C@@H](Cc2ccccc2)NC(=O)[C@H](Cc2c[nH]cn2)NC(=O)[C@H](CCC(=O)O)NC1=O [gallium-67 labelled] |  | C57 mice, B16/F1 flank melanoma, blood | intravenous, 2 h, added: blocking peptide 10 µg |  | tissue uptake | 0.24 ± 0.02 %ID/g
O=C(O)C1CN(Cc2ccc(-c3noc(-c4ccc(OCC[18F])c(C(F)(F)F)c4)n3)cc2)C1 | microPET SUV | C57BL/6 mouse, liver | 100 to 120 min | relative to: LPS-treated over sham | liver uptake increase | 61%
C=C(c1ncc(C(=O)O)cn1)c1cc2c(cc1C)C(C)(C)CCC2(C)C |  | Sprague-Dawley rat, male, plasma | oral, 100 mg/kg, 9 h, sesame oil vehicle |  | HDL level | 48 ± 20 mg/dL
CC(C)[C@H](NC(=O)CNC(=O)[C@H](CCC(N)=O)NC(=O)[C@H](C)N)C(=O)O | LC-MS/MS | human, male, plasma | intravenous, 10 mg/kg three times daily, day 1, first dose, 10 min infusion, geometric mean |  | half-life | 5.4 min
CC(=O)N[C@H](CC(=O)O)C(=O)N[C@H](Cc1c[nH]c2ccccc12)C(=O)N[C@H](Cc1ccccc1)C(=O)N[C@H](CCCCN)C(=O)N[C@H](C)C(=O)N[C@H](Cc1ccccc1)C(=O)N[C@H](Cc1ccc(O)cc1)C(=O)N[C@H](CC(=O)O)C(=O)N[C@H](CCCCN)C(=O)N[C@@H](C(=O)N[C@H](C)C(=O)N[C@H](CCC(=O)O)C(=O)N[C@H](CCCCN)C(=O)N[C@H](Cc1ccccc1)C(=O)N[C@H](CCCCN)C(=O)N[C@H](CCC(=O)O)C(=O)N[C@H](C)C(=O)N[C@H](Cc1ccccc1)C(N)=O)C(C)C |  | statin-treated high-risk CHD men, plasma | oral, 500 mg daily, day 13, 0 to 8 h, mean, all subjects |  | AUC(0-t) | 0.104 µg·h/mL
Cc1ccc(-c2ccc(-c3cc4sccc4o3)cn2)nc1 | TCSPC | dioxane |  |  | fluorescence lifetime | 0.94 ns
Cc1ccccc1/N=N/c1ccc(/N=N/c2c(O)ccc3ccccc23)c(C)c1 |  | extracted rat blood QC samples | 0.5 µg/L, 8 h, room temperature, short-term stability |  | measured concentration | 0.499 µg/L
CC(=O)[CH](C(C)=O)[Pt-2]1([S+](C)C)[O]C(C)=CC(C)=[O+]1 (stereo not drawn) | refers to: platinum | rat, whole blood | intravenous, dose not given |  | AUC(0-24 h) | 263 µg·h/mL
C=CC(=O)Nc1cc(Nc2nccc(-c3cn(C4CC4)c4ccccc34)n2)c(OC)cc1NC | radiolabelled metabolite profiling | human male, plasma | oral, 110 mg, 48 h |  | plasma concentration | 70.5 ng/g
CCc1nc(-c2ccc(-c3ccc(CCC(N)(CO)CO)cc3)cc2)co1 | phosphorylation | human whole blood |  |  | CLint | 0.014 µL/min
Brc1ccc(Nc2nc(NN=Cc3c[nH]c4ccccc34)nc(N3CCOCC3)n2)cc1 |  | human liver microsomes | in vivo extrapolated |  | CLint | 0 µL/min
NC12CNCCNCC(NCc3ccc(CNC(=O)CCCC(=O)NCc4ccc(-c5nncnn5)cc4)cc3)(CNCCNC1)CNCCNC2.[64Cu+2] |  | athymic nude mice, SW1222 xenograft, small intestine with contents | 4 h, pretargeting with huA33-TCO, 24 h interval |  | tissue uptake | 0.62 ± 0.06 %ID/g

Some of these lines once more:
Compound | assay | test system | setting | how to read | endpoint | result
C=CC(=O)Nc1cc(Nc2nccc(-c3cn(C4CC4)c4ccccc34)n2)c(OC)cc1NC | radiolabelled metabolite profiling | human male, plasma | oral, 110 mg, 48 h |  | plasma concentration | 70.5 ng/g
O=C(O)C1CN(Cc2ccc(-c3noc(-c4ccc(OCC[18F])c(C(F)(F)F)c4)n3)cc2)C1 | microPET SUV | C57BL/6 mouse, liver | 100 to 120 min | relative to: LPS-treated over sham | liver uptake increase | 61%
